# Published values pooled from the literature.
# A part holds a random share of what one study measured.

# Block 1
# Target: Interferon regulatory factor 5, full length, phosphomimetic (IRF5, Homo sapiens, UniProt Q13568-2, residues 1-514, K96S/S451D/S453D/S456D/S462D)
# Technique: protein-binding microarray
# Form: double-stranded DNA, one strand shown
# Matrix: in vitro
# Tested at: 250 nM
# Notes: 60-bp whole probe
# Together with: salmon DNA 0.4 mg/ml
# Relative to: random background probes
# Reading: higher = stronger binding
Sequence,log fluorescence [z-score]
GCCTAGCACTTAGGTAGCCTTATCCTTTAGTGCTAGGTCTTGATTCGCTTGACGCTGCTG,-0.453
GCCTAGCACGACGGTAGCGACTTTCGGGACGTGCTAGTCTTGATTCGCTTGACGCTGCTG,4.85
GCCTAGCACTTAGAGTTCAGTTTCGATTAGTGCTAGGTCTTGATTCGCTTGACGCTGCTG,9.77
GCCTAGCACTCAACTTTAGGTTCCCAACTGTGCTAGGTCTTGATTCGCTTGACGCTGCTG,0.139

# Block 2
# Target: Histone acetyltransferase KAT6A, both winged helices, GST fusion (KAT6A, Homo sapiens, UniProt Q92794, residues 1-181)
# Technique: protein binding microarray
# Form: double-stranded DNA, one strand shown
# Matrix: in vitro
# Tested at: not given
# Notes: 8-mer, flanks averaged, mean of 2 arrays, mostly near background
# Relative to: not given
# Reading: higher = stronger binding
# Target sequence (chain): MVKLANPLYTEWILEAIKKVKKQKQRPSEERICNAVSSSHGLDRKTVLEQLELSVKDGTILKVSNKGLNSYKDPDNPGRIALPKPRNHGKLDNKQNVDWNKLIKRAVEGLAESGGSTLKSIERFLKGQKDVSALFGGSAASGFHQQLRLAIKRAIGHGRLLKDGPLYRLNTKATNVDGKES
Sequence,E-score
AGCAGTCA,-0.0836
TCCAGACA,-0.2
ATGCGGTA,0.189

# Block 3
# Target: RNA binding protein fox-1 homolog 2, RRM domain, GST-SBP tag (RBFOX2, Homo sapiens, UniProt O43251-10, residues 100-194)
# Technique: RNA Bind-n-Seq
# Form: RNA
# Matrix: in vitro
# Tested at: 365 nM
# Notes: natural RNA segment, single round, ends assumed
# Relative to: no-protein control
# Reading: higher = stronger binding
Sequence,RBNS enrichment (R)
GGGAGUUCUACAGUCCGACGAUCGGGUUUCCUGCUGCCUGCCCUGGCCCGUGAGAGACGCACGCAACAAACGGAAGAAUUAGAGACGUCCUACAAGGCAGAUUCAGACCAAUAUUUCUUCGUAUAGUUUAUUCUGGAAUUCUCGGGUGCCAA,1.17
GGGAGUUCUACAGUCCGACGAUCACUUUCAAAAAGAAUCAUCAUUGAUUAUUCUUGUUUCACAUCUGAGGAUGAAGGCUAACGGCUGUGCUUGCCCUGGUUACUGGAUGGGAUUCUCUGCUGGGCGGGUGGGGUGGAAUUCUCGGGUGCCAA,0.426
GGGAGUUCUACAGUCCGACGAUCUGCUUUAUAUUUGUAUAUACAUUUUACCUUUUAUACAGAUGUCCGAUUGUUGUCAUUUGGCUCUGCAGCUUGUUUUGUCGUCUGUGUCUGUCUGAGGAACCUGUGUGUCCUGGAAUUCUCGGGUGCCAA,0.472

# Other studies, line by line
Substance,target,assay,system,conditions,scale,quantity,result
"PhoQ, residues 284 288 289 292 302 303 AGCYAI","PhoP, residues 12 14 15 18 19 NQCAL (Escherichia coli, UniProt P23836)","Sort-seq, measured: YFP reporter",E. coli,"PhoQ-PhoP variant library, together with: 10 µM Mg2+","relative to: high Mg2+ state, higher = stronger signaling",fold induction,23.6

# A few entries again (block 3):
Sequence,RBNS enrichment (R)
GGGAGUUCUACAGUCCGACGAUCUGCUUUAUAUUUGUAUAUACAUUUUACCUUUUAUACAGAUGUCCGAUUGUUGUCAUUUGGCUCUGCAGCUUGUUUUGUCGUCUGUGUCUGUCUGAGGAACCUGUGUGUCCUGGAAUUCUCGGGUGCCAA,0.472
